Measured values from different studies.
Each line is one published result; not all experiments were run side by side. ± marks the error that the study gave. Converted amounts (≈) assume the structure as drawn.
Organism: Pseudomonas aeruginosa

COc1cc(NC(=O)CSc2nc3ccccc3c(=O)n2-c2ccc(S(N)(=O)=O)cc2)cc(OC)c1OC
inhibition zone (microbial growth, well diffusion; ATCC27853; 500 µg/mL, 24 h): 18 mm

CC(C)C[C@@H](NC(=O)[C@@H](CCCCN)NC(=O)[C@@H](CCCCNC(=O)[C@@H](CC(C)C)NC(=O)[C@@H](CCCCN)NC(=O)[C@@H](CCCCNC(=O)[C@@H](CC(C)C)NC(=O)[C@@H](CCCCN)NC(=O)[C@@H](CCCCNC(=O)[C@@H](CC(C)C)NC(=O)[C@H](N)CCCCN)NC(=O)[C@@H](CC(C)C)NC(=O)[C@H](N)CCCCN)NC(=O)[C@@H](CC(C)C)NC(=O)[C@@H](CCCCN)NC(=O)[C@@H](CCCCNC(=O)[C@@H](CC(C)C)NC(=O)[C@H](N)CCCCN)NC(=O)[C@@H](CC(C)C)NC(=O)[C@H](N)CCCCN)NC(=O)[C@@H](CC(C)C)NC(=O)[C@@H](CCCCN)NC(=O)[C@@H](CCCCNC(=O)[C@@H](CC(C)C)NC(=O)[C@@H](CCCCN)NC(=O)[C@@H](CCCCNC(=O)[C@@H](CC(C)C)NC(=O)[C@H](N)CCCCN)NC(=O)[C@@H](CC(C)C)NC(=O)[C@H](N)CCCCN)NC(=O)[C@@H](CC(C)C)NC(=O)[C@@H](CCCCN)NC(=O)[C@@H](CCCCNC(=O)[C@@H](CC(C)C)NC(=O)[C@H](N)CCCCN)NC(=O)[C@@H](CC(C)C)NC(=O)[C@H](N)CCCCN)C(N)=O
MBIC (biofilm formation; PAO1; 24 h, 37 °C): 16 µg/mL

CC[C@@H](C)[C@@H](NC(=O)[C@@H](CCCNC(=N)N)NC(=O)[C@@H](CCCNC(=N)N)NC(=O)[C@@H](Cc1c[nH]c2ccccc12)NC(=O)[C@@H](CCC(N)=O)NC(=O)[C@H](N)C(C)C)C(=O)N[C@H](CCCNC(=N)N)C(=O)N[C@@H](C(=O)N[C@H](Cc1c[nH]c2ccccc12)C(=O)N[C@@H](C(=O)N[C@@H](C(=O)N[C@H](CCCNC(=N)N)C(N)=O)[C@H](C)CC)C(C)C)C(C)C
survival (PAO1, Galleria mellonella larvae; proleg injection, 20 µg per larva, 48 h post infection, 37 °C, dosed 1 h after infection): 30 ± 6%

O=c1c(Cl)c(Cl)cnn1Cc1ccccc1Cl
colony size (bacterial growth; wild type, agar; 50 µM): no effect

CC(=O)N[C@H](CCCCN)C(=O)N[C@H](CC(C)C)C(=O)N[C@H](CCCCN)C(=O)N[C@H](CO)C(=O)N[C@H](CC(C)C)C(=O)N[C@H](CC(C)C)C(=O)N[C@H](CCCCN)C(=O)N[C@@H](C(=O)N[C@H](CC(C)C)C(=O)N[C@H](CO)C(=O)N[C@H](CCCCN)C(=O)N[C@H](C)C(=O)N[C@H](CCCCN)C(=O)N[C@H](CCCCN)C(=O)N[C@H](CCCCN)C(=O)N[C@H](CC(C)C)C(=O)N[C@H](CC(C)C)C(=O)N[C@H](CCCCN)C(=O)N[C@@H](C(=O)N[C@H](C)C(=O)N[C@H](CC(C)C)C(=O)N[C@H](CCCCN)C(=O)N[C@H](C)C(=O)N[C@H](CC(C)C)C(=O)N[C@H](CO)C(=O)N[C@H](CCCCN)C(N)=O)[C@H](C)O)[C@H](C)O
MIC geometric mean (six isolates): 1 µM (≈ 2.92 µg/mL)

COc1ccc(-c2ccn(CC[C@](C)(C(=O)NO)S(C)(=O)=O)c(=O)c2)c(F)c1
MIC90 (microbial growth; clinical isolate): 1 µg/mL

CCCCCCCCCC(=O)CC(=O)Nc1cccc(OC)c1
elastase inhibition (elastin-Congo red; PAO1 wild type; 100 µM): ≥ 50%

CC(=O)N[C@H](CCCCN)C(=O)N[C@H](CC(C)C)C(=O)N[C@H](CCCCN)C(=O)N[C@H](CO)C(=O)N[C@H](CC(C)C)C(=O)N[C@H](CC(C)C)C(=O)N[C@H](CCCCN)C(=O)N[C@@H](C(=O)N[C@H](CC(C)C)C(=O)N[C@H](CO)C(=O)N[C@H](CCCCN)C(=O)N[C@H](C)C(=O)N[C@H](CCCCN)C(=O)N[C@H](CCCCN)C(=O)N[C@H](CCCCN)C(=O)N[C@H](CCCCN)C(=O)N[C@H](CC(C)C)C(=O)N[C@H](CCCCN)C(=O)N[C@@H](C(=O)N[C@H](CC(C)C)C(=O)N[C@H](CC(C)C)C(=O)N[C@H](CCCCN)C(=O)N[C@H](C)C(=O)N[C@H](CC(C)C)C(=O)N[C@H](CO)C(=O)N[C@H](CCCCN)C(N)=O)[C@H](C)O)[C@H](C)O
MIC geometric mean (six isolates; 24 h, 37 °C): 1.5 µM (≈ 4.47 µg/mL)

CCCCCCCCCC1CC2CCCC3CC(CCCCCCCCC)NC(=N1)N23 (stereo not shown)
antibacterial activity (ATCC 27853; concentration not given): active

c1ccc(CSc2nnc(C34CC5CC(CC(C5)C3)C4)n2-c2ccccc2)cc1
inhibition zone diameter (IFO 3448; 200 µg/disc, 24 h, 37 °C): < 10 mm

Cc1ccc2ccc3ccc(C)nc3c2n1.Cc1ccc2ccc3ccc(C)nc3c2n1.O.[Cl-].[Cl-].[Cl-].[Yb+3]
inoculation time (bacterial growth): 48 h

CCOC(=O)c1cnc(N/N=C/c2c(-c3ccc(Cl)cc3)nc3ncccn23)s1
inhibition zone (microbial growth, well diffusion; ATCC27853; 100 µg/mL): 12 mm

O=c1cc(-c2ccccc2)oc2cc(O)cc([O][Ga+][O]c3cc(O)cc4oc(-c5ccccc5)cc(=O)c34)c12
biofilm inhibition (crystal violet; 0.08 µM, 48 h, static; relative to: negative control): ~70%

CCCCCCCCCCCCCCC(=O)N[C@@H](CCCCN)C(=O)N[C@@H](CCCCN)C(=O)N[C@@H](CCCCN)C(=O)N[C@@H](CCCCN)C(=O)N[C@@H](Cc1c[nH]cn1)C(N)=O
MBC (ATCC 27853): 128 µg/mL (≈ 144 µM)

CN(C)CCn1nc(C23CC4CC(CC(C4)C2)C3)n(C)c1=S
inhibition zone diameter (IFO 3448; 200 µg/disc, 24 h, 37 °C): < 10 mm

CC(=O)[O-].O.[Cu+2].[O-]c1ccc(Br)cc1C=NCCN1CCOCC1
inhibition zone diameter (20 µL of 100 µM per disc): 17 mm

COc1c2c(cc3oc(=O)cc(-c4ccc(O)cc4)c13)C(=O)c1cc(C)cc(O)c1C2=O
zone of inhibition (MTCC 2453; 100 µg/disc): < 8 mm

O=c1cc(-c2ccc(O)cc2)oc2cc(O)cc([O][Ga+][O]c3cc(O)cc4oc(-c5ccc(O)cc5)cc(=O)c34)c12
inhibition (pyocyanin secretion; 0.08 µM, 20 h): 50%

CCCCCCCCCCCCCCCC(=O)N[C@@H](CCCCN)C(=O)N[C@@H](CCCCN)C(=O)N(CCCCN)CC(=O)N[C@@H](CCCCN)C(=O)N[C@@H](CCCCN)C(N)=O
MBC (ATCC 27853): 128 µg/mL (≈ 143 µM)

CC[C@H](C)[C@H](NC(=O)[C@H](Cc1c[nH]cn1)NC(=O)[C@H](CCCCNC(=O)[C@@H](NC(=O)[C@H](CCCCN)NC(=O)CSC[C@H](NC(=O)[C@H](Cc1ccccc1)NC(=O)[C@H](CCCCNC(=O)[C@H](CC(C)C)NC(=O)[C@@H]1CCCN1C(=O)[C@H](CCCCN)NC(=O)CCS[C@@H]1O[C@H](CO)[C@H](O)[C@H](O)[C@H]1O)NC(=O)[C@H](CC(C)C)NC(=O)[C@@H]1CCCN1C(=O)[C@H](CCCCN)NC(=O)CCS[C@@H]1O[C@H](CO)[C@H](O)[C@H](O)[C@H]1O)C(N)=O)[C@@H](C)CC)NC(=O)[C@@H](NC(=O)[C@H](CCCCN)NC(=O)CSC[C@H](NC(=O)[C@H](Cc1ccccc1)NC(=O)[C@H](CCCCNC(=O)[C@H](CC(C)C)NC(=O)[C@@H]1CCCN1C(=O)[C@H](CCCCN)NC(=O)CCS[C@@H]1O[C@H](CO)[C@H](O)[C@H](O)[C@H]1O)NC(=O)[C@H](CC(C)C)NC(=O)[C@@H]1CCCN1C(=O)[C@H](CCCCN)NC(=O)CCS[C@@H]1O[C@H](CO)[C@H](O)[C@H](O)[C@H]1O)C(N)=O)[C@@H](C)CC)C(N)=O
biofilm dispersal (PAO1; 50 µM, 24 h): increased

CC[C@@H](C)[C@@H](NC(=O)[C@@H](C)NC(=O)[C@@H](CCCCN)NC(=O)[C@@H](CC(C)C)NC(=O)[C@@H](CC(C)C)NC(=O)[C@H](NC(=O)[C@@H](CCCCN)NC(=O)[C@@H](CC(C)C)NC(=O)[C@@H](C)NC(=O)[C@@H](CCCCN)NC(=O)[C@@H](CCCCN)NC(=O)[C@@H](CCCCN)NC(=O)[C@@H](C)NC(=O)[C@@H](CCCCN)NC(=O)[C@@H](CO)NC(=O)[C@@H](Cc1ccccc1)NC(=O)[C@H](NC(=O)[C@@H](CCCCN)NC(=O)[C@@H](CC(C)C)NC(=O)[C@@H](Cc1ccccc1)NC(=O)[C@@H](CO)NC(=O)[C@@H](CCCCN)NC(=O)[C@@H](Cc1c[nH]c2ccccc12)NC(=O)[C@@H](CCCCN)NC(C)=O)[C@H](C)O)[C@H](C)O)C(=O)N[C@H](CO)C(=O)N[C@H](CCCCN)C(N)=O
therapeutic index (six isolates; relative to: HC50 over geometric mean MIC): 35.3

CCCCCCC1N=C(N)N=C(N)N1c1ccc(Cl)cc1.Cl (racemic)
MIC90 (broth microdilution; PAO1; without thymidine): > 128 µM

Excerpt of the above:
c1ccc(CSc2nnc(C34CC5CC(CC(C5)C3)C4)n2-c2ccccc2)cc1
inhibition zone diameter (IFO 3448; 200 µg/disc, 24 h, 37 °C): < 10 mm

Cc1ccc2ccc3ccc(C)nc3c2n1.Cc1ccc2ccc3ccc(C)nc3c2n1.O.[Cl-].[Cl-].[Cl-].[Yb+3]
inoculation time (bacterial growth): 48 h
